Published values collected from several papers.
Protocols differ between the studies behind these lines. Values joined by “and” are separate records of one study, mostly repeats; a detail may differ. Numbers after ± are the reported error.
FPR2: N-formyl peptide receptor 2 (FPR2, Homo sapiens, UniProt P25090)
CA1: Carbonic anhydrase 1 (CA1, Homo sapiens, UniProt P00915)

Chains of the proteins cited; added tags and fusions are not shown. Residues count along the entry.
UniProt P25090, whole entry: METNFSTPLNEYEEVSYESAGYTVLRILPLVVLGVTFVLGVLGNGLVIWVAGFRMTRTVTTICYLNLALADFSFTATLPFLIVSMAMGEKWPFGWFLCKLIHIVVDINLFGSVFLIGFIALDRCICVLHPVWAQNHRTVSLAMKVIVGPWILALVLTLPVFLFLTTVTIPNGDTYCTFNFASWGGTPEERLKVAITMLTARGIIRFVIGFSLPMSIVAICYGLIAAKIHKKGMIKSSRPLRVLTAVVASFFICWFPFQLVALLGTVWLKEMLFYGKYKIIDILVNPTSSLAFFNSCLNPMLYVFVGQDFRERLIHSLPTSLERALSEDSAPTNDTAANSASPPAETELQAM
UniProt P00915, whole entry: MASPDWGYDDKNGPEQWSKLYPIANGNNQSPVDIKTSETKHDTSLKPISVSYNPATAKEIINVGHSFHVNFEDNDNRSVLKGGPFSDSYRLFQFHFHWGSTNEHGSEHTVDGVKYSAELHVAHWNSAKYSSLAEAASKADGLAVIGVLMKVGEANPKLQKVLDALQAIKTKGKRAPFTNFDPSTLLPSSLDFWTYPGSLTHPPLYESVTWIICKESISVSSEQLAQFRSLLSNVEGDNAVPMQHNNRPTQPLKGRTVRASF
UniProt O96013, whole entry: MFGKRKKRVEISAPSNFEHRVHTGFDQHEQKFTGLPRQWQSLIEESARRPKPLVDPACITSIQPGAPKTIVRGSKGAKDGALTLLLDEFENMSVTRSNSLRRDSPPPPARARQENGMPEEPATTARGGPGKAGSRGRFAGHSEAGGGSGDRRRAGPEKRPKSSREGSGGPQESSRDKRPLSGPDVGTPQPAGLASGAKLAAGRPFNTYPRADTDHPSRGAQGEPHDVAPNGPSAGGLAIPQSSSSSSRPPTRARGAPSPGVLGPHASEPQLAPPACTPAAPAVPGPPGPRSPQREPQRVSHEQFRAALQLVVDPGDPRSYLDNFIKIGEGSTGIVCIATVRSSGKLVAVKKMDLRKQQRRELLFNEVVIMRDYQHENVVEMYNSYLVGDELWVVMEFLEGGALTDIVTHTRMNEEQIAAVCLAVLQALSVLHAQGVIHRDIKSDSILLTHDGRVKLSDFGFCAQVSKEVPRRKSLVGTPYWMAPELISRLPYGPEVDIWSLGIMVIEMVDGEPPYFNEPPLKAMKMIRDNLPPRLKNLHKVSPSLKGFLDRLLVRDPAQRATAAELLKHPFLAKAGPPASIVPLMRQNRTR
UniProt P00492, whole entry: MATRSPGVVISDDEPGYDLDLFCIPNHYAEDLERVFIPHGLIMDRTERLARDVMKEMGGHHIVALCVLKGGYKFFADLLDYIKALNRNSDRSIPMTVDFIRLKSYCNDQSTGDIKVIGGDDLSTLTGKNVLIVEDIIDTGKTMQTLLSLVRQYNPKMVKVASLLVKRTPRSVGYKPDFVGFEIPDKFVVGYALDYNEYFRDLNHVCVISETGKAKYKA
UniProt P21917, whole entry: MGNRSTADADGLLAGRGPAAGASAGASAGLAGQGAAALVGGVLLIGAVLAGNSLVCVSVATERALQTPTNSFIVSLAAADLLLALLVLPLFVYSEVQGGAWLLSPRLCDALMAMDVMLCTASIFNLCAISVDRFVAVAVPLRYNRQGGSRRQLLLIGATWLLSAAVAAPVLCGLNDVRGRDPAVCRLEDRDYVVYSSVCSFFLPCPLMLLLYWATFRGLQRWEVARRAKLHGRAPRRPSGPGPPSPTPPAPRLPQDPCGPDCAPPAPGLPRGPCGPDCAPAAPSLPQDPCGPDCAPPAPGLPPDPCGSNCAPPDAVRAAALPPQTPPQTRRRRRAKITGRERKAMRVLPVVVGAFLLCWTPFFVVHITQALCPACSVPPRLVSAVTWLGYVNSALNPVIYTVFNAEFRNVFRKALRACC
UniProt P11387, whole entry: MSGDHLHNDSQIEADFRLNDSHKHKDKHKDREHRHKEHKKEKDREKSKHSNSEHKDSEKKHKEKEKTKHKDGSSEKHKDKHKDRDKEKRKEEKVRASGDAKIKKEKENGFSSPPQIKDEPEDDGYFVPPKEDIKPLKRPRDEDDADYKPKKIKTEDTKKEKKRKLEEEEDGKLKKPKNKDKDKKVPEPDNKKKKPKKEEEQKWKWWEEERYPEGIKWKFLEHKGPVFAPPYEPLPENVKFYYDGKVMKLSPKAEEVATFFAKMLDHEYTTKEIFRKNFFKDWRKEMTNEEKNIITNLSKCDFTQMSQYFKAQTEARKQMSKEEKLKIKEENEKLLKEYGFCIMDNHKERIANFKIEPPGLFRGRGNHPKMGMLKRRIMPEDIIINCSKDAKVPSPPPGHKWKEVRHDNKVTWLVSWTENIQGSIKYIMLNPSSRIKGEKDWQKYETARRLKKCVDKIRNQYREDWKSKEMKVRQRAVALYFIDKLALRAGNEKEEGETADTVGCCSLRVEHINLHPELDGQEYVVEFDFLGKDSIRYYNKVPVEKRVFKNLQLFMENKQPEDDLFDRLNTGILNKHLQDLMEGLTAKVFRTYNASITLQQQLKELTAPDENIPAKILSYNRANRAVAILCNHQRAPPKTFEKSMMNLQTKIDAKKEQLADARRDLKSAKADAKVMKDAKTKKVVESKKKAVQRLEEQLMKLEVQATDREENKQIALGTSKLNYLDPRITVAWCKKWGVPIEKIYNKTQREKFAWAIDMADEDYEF
UniProt Q16539, whole entry: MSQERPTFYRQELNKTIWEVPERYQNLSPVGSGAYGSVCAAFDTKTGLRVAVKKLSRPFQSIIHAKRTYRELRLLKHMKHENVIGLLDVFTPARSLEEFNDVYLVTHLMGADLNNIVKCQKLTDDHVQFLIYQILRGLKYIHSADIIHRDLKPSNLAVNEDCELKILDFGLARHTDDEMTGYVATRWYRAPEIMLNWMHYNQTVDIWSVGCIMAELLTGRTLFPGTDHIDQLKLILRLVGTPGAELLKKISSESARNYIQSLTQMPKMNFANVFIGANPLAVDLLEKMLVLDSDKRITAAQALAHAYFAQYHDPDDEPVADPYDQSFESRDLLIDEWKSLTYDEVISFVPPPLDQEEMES
UniProt Q3XYE8, 1-234: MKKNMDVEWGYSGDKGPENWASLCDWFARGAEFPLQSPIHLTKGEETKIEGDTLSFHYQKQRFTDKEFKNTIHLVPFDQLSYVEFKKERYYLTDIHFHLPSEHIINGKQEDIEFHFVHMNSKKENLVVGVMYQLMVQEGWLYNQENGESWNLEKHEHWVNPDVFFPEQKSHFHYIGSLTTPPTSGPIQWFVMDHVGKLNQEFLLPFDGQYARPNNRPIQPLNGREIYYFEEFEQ
UniProt P19327, whole entry: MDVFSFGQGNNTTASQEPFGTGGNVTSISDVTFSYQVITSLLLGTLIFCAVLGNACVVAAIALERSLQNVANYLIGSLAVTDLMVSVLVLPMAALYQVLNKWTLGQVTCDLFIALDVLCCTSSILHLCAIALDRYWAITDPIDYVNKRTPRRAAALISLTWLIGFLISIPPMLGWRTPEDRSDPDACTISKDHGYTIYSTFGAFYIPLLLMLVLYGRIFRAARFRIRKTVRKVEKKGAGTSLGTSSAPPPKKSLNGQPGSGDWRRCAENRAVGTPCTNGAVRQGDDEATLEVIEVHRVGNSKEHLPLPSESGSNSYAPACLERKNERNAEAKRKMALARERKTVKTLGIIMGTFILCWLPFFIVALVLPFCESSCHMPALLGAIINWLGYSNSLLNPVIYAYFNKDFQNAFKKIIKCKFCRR
UniProt P35462, whole entry: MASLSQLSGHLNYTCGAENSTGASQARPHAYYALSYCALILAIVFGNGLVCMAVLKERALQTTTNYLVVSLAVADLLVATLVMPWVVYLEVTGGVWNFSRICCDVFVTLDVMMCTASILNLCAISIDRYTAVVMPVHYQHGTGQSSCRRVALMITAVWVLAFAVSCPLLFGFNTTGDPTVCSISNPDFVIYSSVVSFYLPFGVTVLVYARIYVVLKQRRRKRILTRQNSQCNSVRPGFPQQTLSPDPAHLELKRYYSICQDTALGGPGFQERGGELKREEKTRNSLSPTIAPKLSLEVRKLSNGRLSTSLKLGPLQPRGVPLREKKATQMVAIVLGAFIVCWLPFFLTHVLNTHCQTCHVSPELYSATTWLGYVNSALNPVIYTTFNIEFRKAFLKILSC

N#Cc1c(-c2ccc(Cl)cc2Cl)n(-c2nc(-c3ccc(Cl)cc3)c3c(NC(=O)c4ccccc4)nnc-3[nH]2)[nH]c1=O  cell growth (T47D; SRB; 10 µM): 24.1%
OC1(C#Cc2ccc3ccn(-c4ccnc(Nc5ccc(C(F)(F)F)cc5)n4)c3c2)CCCCC1  Ki (Serine/threonine-protein kinase PAK 4 (PAK4, Homo sapiens, UniProt O96013); inhibitor, HTRF): 0.23 µM
CCc1cc2c(=O)c(-c3nc4ccccc4n3C)c(C)oc2cc1OC(C)=O  Ki (FPR2; binding; single representative run): 4.4 µM
O=c1[nH]cnc2c(CN[C@H](CO)CCP(=O)(O)O)c[nH]c12  Ki (Hypoxanthine-guanine phosphoribosyltransferase (Homo sapiens, UniProt P00492); enzyme activity, inhibitor, spectrophotometric): 0.385 µM
COc1ccccc1N1CCN(CCCCc2cn(-c3cccc4ncccc34)nn2)CC1  Ki (D(4) dopamine receptor (DRD4, Homo sapiens, UniProt P21917); binding; HEK293 membranes; added: 0.4 nM [3H]N-methylspiperone): > 1 µM
NS(=O)(=O)c1nnc(NC(=O)C2C3CC4CC(C3)CC2C4)s1 (stereo not drawn)  Ki (CA1; CO2 hydration, inhibitor, stopped-flow kinetics): 0.195 µM
CC/C=C\C/C=C\CCC/C=C/C=C/C=C\CCCC(=O)O  IC50 (DNA topoisomerase 1 (TOP1, Homo sapiens, UniProt P11387); catalytic activity, inhibitor, gel; added: 2 units topo I, pBR322): 0.5 ± 0.1 µM
C=C(C)C(=O)Nc1ccc(-c2c(-c3ccc(Oc4nccc(C)n4)c(F)c3)c3c(N)ncnc3n2C)cc1  area over GR curve (EN; cell growth, CellTiter-Glo; 120 h, unit not given; reference: untreated growth rate, higher = stronger inhibition): 0.451
CC(C)C[C@H](NC(=O)[C@H](C)NC(=O)[C@H](CCCNC(=N)N)NC(=O)[C@H](CCCNC(=N)N)NC(=O)[C@H](CCCNC(=N)N)NC(=O)[C@H](C)NC(=O)[C@H](CC(C)C)NC(=O)[C@H](CCCNC(=N)N)NC(=O)[C@H](CO)NC(=O)[C@H](CCCCN)NC(=O)[C@H](CO)NC(=O)Cn1cc(COC(=O)[C@]2(C)C=C(C(=O)OC(C)(C)C)C(=O)CC2)nn1)C(=O)O  remaining activity (Mitogen-activated protein kinase 14 (MAPK14, Homo sapiens, UniProt Q16539); enzyme activity, inhibitor, D-SENSOR kinase; 7.407 µM, unit not given; reference: untreated): 0.0277 and 0.0275 and 0.0371
NS(=O)(=O)c1nnc(NC(=O)CC2C3CC4CC(C3)CC2C4)s1 (stereo not drawn)  Ki (alpha-carbonic anhydrase (Enterococcus faecium, UniProt Q3XYE8); CO2 hydration, inhibitor, stopped-flow kinetics): 0.0369 µM
c1cnc2c(N3CCN(CCCN4CCN(c5cccc6sccc56)CC4)CC3)cccc2c1  Ki (5-hydroxytryptamine receptor 1A (Htr1a, Rattus norvegicus, UniProt P19327); binding): 0.0585 ± 0.0042 µM
CCOC(=O)c1c(-c2ccc(Cl)cc2Cl)n(-c2nc(-c3ccc(Cl)cc3)c3c(NC(=O)c4ccccc4)nnc-3[nH]2)[nH]c1=O  cell growth (T47D; SRB; 10 µM): 7.66%
COc1ccc(-c2cn3cccnc3n2)cc1NC(=O)C(C)C  Ki (FPR2; binding): 0.27 ± 0.051 µM
NS(=O)(=O)c1nnc(NC(=O)C2C3CC2C3)s1 (stereo not drawn)  Ki (CA1; CO2 hydration, inhibitor, stopped-flow kinetics): 0.109 µM
CCn1c2c(c3ccccc31)CCN(CCCCNC(=O)c1ccc3[nH]c4ccccc4c3c1)C2  Ki (D(3) dopamine receptor (DRD3, Homo sapiens, UniProt P35462); binding): 0.0367 ± 0.0015 µM

Some of these lines once more:
NS(=O)(=O)c1nnc(NC(=O)C2C3CC2C3)s1 (stereo not drawn)  Ki (CA1; CO2 hydration, inhibitor, stopped-flow kinetics): 0.109 µM
CCn1c2c(c3ccccc31)CCN(CCCCNC(=O)c1ccc3[nH]c4ccccc4c3c1)C2  Ki (D(3) dopamine receptor (DRD3, Homo sapiens, UniProt P35462); binding): 0.0367 ± 0.0015 µM
